{"data": "Published values gathered from unrelated publications", "note": "Each numbered part is a random draw from the data of one study; scales do not carry over between parts. Substitutions count along the parent as printed."}
{"data": "Sample 1", "target": "Ras GTPase-activating protein-binding protein 1, RRM domain (G3BP1, Homo sapiens, UniProt Q13283)", "technique": "RNA Bind-n-Seq", "molecule type": "RNA", "medium": "in vitro", "concentration": "1 µM", "notes": "whole 134-nt RNA, ends assumed", "added": "150 mM KCl", "baseline": "input library", "direction": "higher = stronger binding", "constant ends, left off below": "GGGAGUUCUACAGUCCGACGAUC … UGGAAUUCUCGGGUGUCAAGG", "UniProt Q13283, sequence (whole entry, looked up)": "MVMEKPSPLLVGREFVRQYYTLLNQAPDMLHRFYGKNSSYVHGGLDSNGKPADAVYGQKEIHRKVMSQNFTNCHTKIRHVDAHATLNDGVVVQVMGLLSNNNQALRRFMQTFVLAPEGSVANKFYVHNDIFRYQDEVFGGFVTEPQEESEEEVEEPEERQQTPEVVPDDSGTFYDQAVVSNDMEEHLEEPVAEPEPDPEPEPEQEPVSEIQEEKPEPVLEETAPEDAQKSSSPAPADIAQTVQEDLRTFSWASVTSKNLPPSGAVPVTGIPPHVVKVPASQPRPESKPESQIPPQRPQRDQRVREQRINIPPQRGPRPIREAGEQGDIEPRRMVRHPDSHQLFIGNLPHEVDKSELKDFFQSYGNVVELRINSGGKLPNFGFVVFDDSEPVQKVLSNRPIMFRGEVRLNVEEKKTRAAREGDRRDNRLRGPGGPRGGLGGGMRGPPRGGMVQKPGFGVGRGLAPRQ"}
{"Sequence": "CACAGACAACACGCACCCACACAGACACAGAGGGAAGGGGUUGGGAUGGGGACAGAGUGCACAGCAGGGCGGGGUAGGACCCCAGCCCCU", "log2 enrichment": 0.18}
{"Sequence": "UGAUCUCCAGGAUGACAUGCGAAGAUGCCAAAUCAUCCGAGACAUGAUUGGACCGGAAAAGACUUUGGUAAAUAUCCUCUCACACCACUA", "log2 enrichment": -0.0374}
{"Sequence": "CUCAAGUCCUGUGCUACACAUCGUAUGUACCGAAUCGGAGGUUUGGAAAAAGGAAAGUAUUAUGUUACGCCGUUCGGAUCUGCACUUCCA", "log2 enrichment": -0.243}
{"Sequence": "CAAGUCCUGUGCUACACAUCGUAUGUACCGAAUCGGGAAAAAAAGGGAGGGUGGGAAAGUAUUAUGUUACGCCGUUCGGAUCUGCACUUC", "log2 enrichment": 0.927}
{"Sequence": "CCUGUGCUACACAUCGUAUGUACCGAAUCGGGGUUUGGGGAAAAAGGGGUUUUUUUGGGGAAAGUAUUAUGUUACGCCGUUCGGAUCUGC", "log2 enrichment": 1.03}
{"Sequence": "GCAGGAAGUAAAAACAAAUGGAAAUGCUUCGGAUAGUGGCAGGGGUGGGGGUUGCUAAGGAAAGGGUGCGAUGGGAGUGGGUAAAGAGUU", "log2 enrichment": 1.28}
{"Sequence": "UGUUCACAUUUUAAGGAUGACAAGUCCACUAUAUGUAACACGUAAGAAUGCUAUCCUGGCAGUAGACACAGGGCCAGAAUAAACUGGCAA", "log2 enrichment": -0.122}
{"Sequence": "UGGCCCUGGUGGCAUGCGGGGAGGAAGAGGUGGCCUCAUGGAUCGUGGUGGUCCCGGUGGUAUGUUCAGAGGUGGCCGUGGUGGAGACAG", "log2 enrichment": 0.897}
{"Sequence": "CCUCAAGUCCUGUGCUACACAUCGUAUGUACCGAAUCGGUGGUGGUUUUUGGAAAGUAUUAUGUUACGCCGUUCGGAUCUGCACUUCCAG", "log2 enrichment": -0.126}
{"Sequence": "UGCGGGCGGCUGAGACGCCGCCUGCCUGGCACCUAGGAGCGCAGCGGAGCCCCGACACCGCCGCCGCCGCCAUGGAGUCCGAGACCGAAC", "log2 enrichment": -0.429}
{"Sequence": "CUGUGCUACACAUCGUAUGUACCGAAUCGGGGAAAAAAAGGGGUUUUUUUGGGGUUUGGGGAAAGUAUUAUGUUACGCCGUUCGGAUCUG", "log2 enrichment": 0.695}
{"Sequence": "UUUUCUGUUUGAAACAGUUUUAUACUUUCUGAUAUAGUACUUGAAAUUCUUACCAGAAAAUUACUUUGGAGUUUUGAAGCCUUUAUUAAU", "log2 enrichment": -0.0715}
{"Sequence": "CCUGUGCUACACAUCGUAUGUACCGAAUCGGGAAAAAAGGGGAAAAAAGGGGAAAAAAGGGAAAGUAUUAUGUUACGCCGUUCGGAUCUG", "log2 enrichment": 0.0401}
{"Sequence": "GUCCUGUGCUACACAUCGUAUGUACCGAAUCGGGAAAAAAAGGGAAAGGGAAAAAGGGAAAGUAUUAUGUUACGCCGUUCGGAUCUGCAC", "log2 enrichment": 0.181}
{"data": "Sample 2", "target": "Prothrombin, mature alpha-thrombin (F2, Homo sapiens, UniProt P00734)", "technique": "aptamer microarray, sandwich", "molecule type": "DNA with 2'F-ANA", "medium": "in vitro", "concentration": "200 nM", "notes": "whole 15-mer aptamer, many near background", "added": "Cy3 exosite-II aptamer, 400 nM", "direction": "higher = stronger binding", "sequence": "GGTTGGTGTGGTTGG"}
{"Modification": "2'F-ANA at 1 2 4 6 7 9 10 11 13 15", "mean fluorescence intensity": "51.6 a.u."}
{"Modification": "2'F-ANA at 3 4 9 10 13 15", "mean fluorescence intensity": "241 a.u."}
{"Modification": "2'F-ANA at 1 2 3 5 6 10 12", "mean fluorescence intensity": "47.9 a.u."}
{"Modification": "2'F-ANA at 1 6 8 11 12", "mean fluorescence intensity": "317 a.u."}
{"Modification": "2'F-ANA at 2 3 5 6 7 8 10 13", "mean fluorescence intensity": "50 a.u."}
{"Modification": "2'F-ANA at 4 6 7 8 10 13 14", "mean fluorescence intensity": "57.4 a.u."}
{"Modification": "2'F-ANA at 2 3 4 6 8 9 10 13 15", "mean fluorescence intensity": "176 a.u."}
{"Modification": "2'F-ANA at 3 4 7 9 12 14", "mean fluorescence intensity": "344 a.u."}
{"Modification": "2'F-ANA at 2 7 11 14", "mean fluorescence intensity": "175 a.u."}
{"Modification": "2'F-ANA at 2 4 5 6 7 11 14 15", "mean fluorescence intensity": "47.7 a.u."}
{"Modification": "2'F-ANA at 1 3 4 5 6 7 9 12 14 15", "mean fluorescence intensity": "51.2 a.u."}
{"Modification": "2'F-ANA at 3 11 12 13 15", "mean fluorescence intensity": "1210 a.u."}
{"Modification": "2'F-ANA at 2 8 9 10 12 14 15", "mean fluorescence intensity": "92.8 a.u."}
{"Modification": "2'F-ANA at 4 5 6 12 13 14 15", "mean fluorescence intensity": "56.7 a.u."}
{"Modification": "2'F-ANA at 2 3 5 8 11 12 15", "mean fluorescence intensity": "183 a.u."}
{"Modification": "2'F-ANA at 5 11 14", "mean fluorescence intensity": "44.5 a.u."}
{"Modification": "2'F-ANA at 2 3 6 8 10 11 12 15", "mean fluorescence intensity": "296 a.u."}
{"Modification": "2'F-ANA at 1 2 4 10 12", "mean fluorescence intensity": "60 a.u."}
{"Modification": "2'F-ANA at 4 5 6 9 10 11 13 14", "mean fluorescence intensity": "47.3 a.u."}
{"Modification": "2'F-ANA at 1 2 5 7 9 11 13 14 15", "mean fluorescence intensity": "52.9 a.u."}
{"Modification": "2'F-ANA at 3 4 8 11 12 14", "mean fluorescence intensity": "397 a.u."}
{"Modification": "2'F-ANA at 1 3 4 7 10 11 13 14 15", "mean fluorescence intensity": "55.5 a.u."}
{"data": "Sample 3", "target": "RNA binding protein fox-1 homolog 2, RRM domain, GST-SBP tag (RBFOX2, Homo sapiens, UniProt O43251-10, residues 100-194)", "technique": "RNA Bind-n-Seq", "molecule type": "RNA", "medium": "in vitro", "concentration": "365 nM", "notes": "natural RNA segment, single round, ends assumed", "baseline": "no-protein control", "direction": "higher = stronger binding", "constant ends, left off below": "GGGAGUUCUACAGUCCGACGAUC … UGGAAUUCUCGGGUGCCAA", "Construct (chain)": "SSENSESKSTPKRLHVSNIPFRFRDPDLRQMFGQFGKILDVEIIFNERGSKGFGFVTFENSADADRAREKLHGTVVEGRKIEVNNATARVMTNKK"}
{"Sequence": "UUUAUUAAAAGCUUUUUGAACAUUAAAUUAUUAUUUCUUCAAUGCAUUUAGAAGUUAGAACAGAAAACAAAAAUGCCAGUCAGGCCUCUUCUCCCCAGGUGUACCAUUUU", "RBNS enrichment (R)": 2.75}
{"Sequence": "UGGAGAAGUAUUUAUUUUCAAAUAUCAAAUUGAAGAAAAACUCAAUCCUCCCAUGAAAAUCAGUUCGCCUGGCCUCCAAGUCGUGAGGAAAUGGGUAUGCAAGGCUGAGA", "RBNS enrichment (R)": 0.34}
{"Sequence": "UUUCUGCUUGUUUUGAUUCAAAGUGCAGUUACUGAUGUUGUUUUGAUUAUGCAACUAAGUAGGCCUCCAGAGCCUCUCUAGUGGCAGAGCAGCUCACACUCCCUCCGCUG", "RBNS enrichment (R)": 0.582}
{"Sequence": "ACCUGGUGAUGCAAUCUUUUUUUUUUUUAAUUUAAUUUAAUUUUAAAAUAAAUGCUGCAUUGGUAAAGCUGGCAGUUGAAACCAGUUGGACGGCCCAGCUUGCGUCUCUU", "RBNS enrichment (R)": 0.553}
{"Sequence": "CUCUCUUUGGGGCUUCUCCCUCCCGUUUCAGGGGAAAGGUCUGAGUCUCCACGUUUCAGACCAGCUUCUGGGGGAAGGCAGUCCGGCAGGGAGACCGGGAGGGGUGGCCA", "RBNS enrichment (R)": 0.361}
{"Sequence": "AAUGCAGGGCCCCUUUCUGAUCUCACCAUUUCACCAUGCAUCUUGGAAUUCAGUAAGUGCAUAUCCUAACUUGCCCAUAUUCUAAAUCAUCUGGUUGGUUUUCAGCCUAG", "RBNS enrichment (R)": 1.53}
{"Sequence": "GGAGUUUGAAUGUGAUGAUUAAAAAAAGAGCCAAGGAAAAAGGUAGCUAGAAAAAAAGGUUGGCUCUCAUCAGCCUUAAUUUUGGAAAGCAGCUACUUACCCCUCAGAGA", "RBNS enrichment (R)": 1.73}
{"Sequence": "ACAGGUGUACUCUGCCAUGUGUAGCUCUUAAAACGGCCCAUGGUACCUACUAAGCAGAGCAAGGCCUGGGUAUCAAACAGUUCUGUGUUAACAGUUCCUAAAUUCUAAGG", "RBNS enrichment (R)": 0.39}
{"Sequence": "GCUUCUACCGUUAGGCGCUGCAGGCUUGAAGUGGCAAGGCCCUGCAUCUCAAGCACUCAGAGCUCUGUGAGCUUGCCUACUGUGCGCAGGAUCUCCCCAAGUAUGUCCUA", "RBNS enrichment (R)": 0.619}
{"Sequence": "CUCAUCAUAAUAUUUUUAUUAGAAUGUUCUGAUGAUAAAAAUAAAACUUGUUUUCUUUAAAGAAAAAGUUGAUCUAAUUUUUCUCAAAACGCAGAGCUCCCCUCGUGCCU", "RBNS enrichment (R)": 0.392}
{"Sequence": "UUAUUUUUAAUAUUAUUUUAUUUGUGUCUGUGUACAUAUUCAUGUAUAAAUUUUAUGAAACCCAAGCAUAGUGCUUAUUUUUUAAUAAAACAACUGACUUAACACAUUGU", "RBNS enrichment (R)": 0.69}
{"Sequence": "UUUACUGAUACCCCACAGUGGAAGGCAUUUCUUCCAGAUAUUUUCCAGAUACCUUGGCCGCCAAACUUCGUUUUCAAACACUGUGUUUUAUUGUGUAGACCUUGAAAACC", "RBNS enrichment (R)": 0.378}
{"data": "Sample 4", "target": "CCND1, cyclin fold, Cln2 fusion (human)", "technique": "yeast growth competition, sequencing", "medium": "yeast", "notes": "weak parent motif", "baseline": "not given", "direction": "higher = stronger binding", "starting sequence": "MASTL docking peptide (human); PMIAKNLMCELDE; partner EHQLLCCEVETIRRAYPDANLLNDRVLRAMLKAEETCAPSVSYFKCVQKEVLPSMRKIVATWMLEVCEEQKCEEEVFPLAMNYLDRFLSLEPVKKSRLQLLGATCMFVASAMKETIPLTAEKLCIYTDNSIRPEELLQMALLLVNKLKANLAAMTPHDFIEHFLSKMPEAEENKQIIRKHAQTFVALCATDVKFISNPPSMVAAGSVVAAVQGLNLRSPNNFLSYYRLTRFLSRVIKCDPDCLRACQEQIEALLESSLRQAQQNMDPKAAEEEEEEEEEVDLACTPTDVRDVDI"}
{"Change": "L7M", "normalised enrichment score": -0.155}
{"Change": "N6S", "normalised enrichment score": 0.106}
{"Change": "M8T", "normalised enrichment score": 0.0841}
{"Change": "A4R", "normalised enrichment score": 0.0528}
{"Change": "N6V", "normalised enrichment score": -0.121}
{"Change": "K5R", "normalised enrichment score": 0.709}
{"Change": "I3D", "normalised enrichment score": 0.0836}
{"Change": "I3A", "normalised enrichment score": 0.562}
{"Change": "I3Q", "normalised enrichment score": 0.11}
{"Change": "L11S", "normalised enrichment score": 0.107}
{"Change": "I3W", "normalised enrichment score": -0.137}
{"Change": "L11V", "normalised enrichment score": 0.138}
{"Change": "E10F", "normalised enrichment score": 0.00939}
{"Change": "E10C", "normalised enrichment score": -0.0725}
{"Change": "C9D", "normalised enrichment score": 0.211}
{"Change": "M8R", "normalised enrichment score": 0.0984}
{"Change": "E10P", "normalised enrichment score": 0.00309}
{"Change": "I3C", "normalised enrichment score": 0.4}
{"Change": "C9L", "normalised enrichment score": 0.215}
{"Change": "D12F", "normalised enrichment score": 0.269}
{"Change": "D12H", "normalised enrichment score": 0.162}
{"Change": "C9V", "normalised enrichment score": -0.0193}
{"Change": "A4Q", "normalised enrichment score": -0.216}
{"Change": "L7E", "normalised enrichment score": 0.579}
{"Change": "E10R", "normalised enrichment score": 0.0874}
{"note": "Repeated from above (sample 4):"}
{"Change": "I3C", "normalised enrichment score": 0.4}
{"Change": "C9L", "normalised enrichment score": 0.215}
{"Change": "D12F", "normalised enrichment score": 0.269}
{"Change": "D12H", "normalised enrichment score": 0.162}
{"Change": "C9V", "normalised enrichment score": -0.0193}
{"Change": "A4Q", "normalised enrichment score": -0.216}
